Experimental data pooled from the literature.
A part holds a random share of what one study measured.

Study 1
Target: RING finger protein unkempt homolog, zinc fingers 1-6, GST-SBP tag (UNK, Homo sapiens, UniProt Q9C0B0, residues 30-357)
Chain of UniProt Q9C0B0 (30-357, looked up): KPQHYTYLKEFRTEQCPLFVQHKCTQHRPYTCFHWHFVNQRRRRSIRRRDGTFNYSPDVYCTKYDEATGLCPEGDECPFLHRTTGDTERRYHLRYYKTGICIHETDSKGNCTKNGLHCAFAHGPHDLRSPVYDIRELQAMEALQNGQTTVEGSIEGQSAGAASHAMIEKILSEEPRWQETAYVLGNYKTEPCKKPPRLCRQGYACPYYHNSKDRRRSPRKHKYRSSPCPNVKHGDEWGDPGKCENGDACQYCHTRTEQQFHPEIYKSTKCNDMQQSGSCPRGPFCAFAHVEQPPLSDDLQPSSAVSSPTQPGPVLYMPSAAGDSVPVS
Method: RNA Bind-n-Seq
Molecule type: RNA
Medium: in vitro
Tested at: not given
Notes: RNA with constant flanks, ends assumed
Baseline: input RNA pool
Reading: higher = stronger binding
Constant ends, left off below: GGGAGUUCUACAGUCCGACGAUC … CAACAGAGGAUUGAGCAUCA
`UUCAGGACUUUUCUUGGGGUUUCAGAAUGGGUUUAUAUGAUUUUCUUUAUUAUUUUUUGGCCGUUUUAUUUAUUCUAUCAGUCUUUUUAACAAAUGUUUAUUGCUGCACCUCCUCCCCAG` gave a bound/input enrichment of 30.4 ratio.
The bound/input enrichment of `AAUGUGGAAACAGUAGAAUAUAAGAACAUUUGUUUCACAGUAUGGGAUGUUGGUGGUCAAGACCGAAUUAGGCCUCUCUGGAAGCAUUACUUCCAGAAUACCCAGGGUCUUAUUUUUGUG` is reported as 0.583 ratio.
`CUGGUAGACGACAAGCCUGGCCCUAGUCCGUUUUCUGAUCAGUCAGAACCCACAAUAACUACCCGCCGUCCUGUGGCUUUCAACCCAUUUCUCAUCCCAGGAGUGUCUCCUGGACUCAUC` gave a bound/input enrichment of 0.194 ratio.
For `GAUAGGAAAAACUUGUUGGAGACCCGAUUGCACAUCACUGGCAGAGAACUGAGGUCCAAAACCGCUGAAACCUUUGGACUUCAAGAAAAUUAUAUCAAAAUUGUCAUAAAUAAGAAGCAA`, the bound/input enrichment was 0.637 ratio.
The bound/input enrichment of `AAUCUCUGGGAACACUAUUAUAAAGAAGGCCAAGCUAUUAUUUUUGUCAUUGAUAGCCGUGACCGAUUAAGAAUGGUUGUGGCCAAAGAAGAACUCGAUACUCUUCUGAAUCAUCCAGAU` is reported as 0.104 ratio.
With `CUCACGGCCCAGCAUGAAAACUUCAGGAAAAAGCAAAUUGAGGAACUGAAGGGACAGGAAGUCCGCCCUAAAGUUUACUUCAUGAAGCAGACCAUCGGAAACUCCUGUGGUACCAUCGGG` the bound/input enrichment was 0.143 ratio.
With `UUAGAAUGUUACUUAGACCAAGUUUAGCUUUUAGAGUCCAGGUCUGGUUAAUUGCCAGGGCCGCAAAGAAUUGCAUGCACCAAUAUAAACAGGAGUCAAAAAUGCAUUAUUAAUCGAAGA` the bound/input enrichment was 1.65 ratio.
The bound/input enrichment of `CAGCUGCUUACACAGGAUGUAGAAAAAUUUUGUAACAGUGUAGUCGAUCUGUAUUCAAAUCUCCGUAAGCCAUUUUUAGACAUAGUUUUAUAUAUUUUCAAGUUAACAAGUGCAAUUGGA` is reported as 114 ratio.

Study 2
Target: Interferon regulatory factor 3, full length, phosphomimetic (IRF3, Homo sapiens, UniProt Q14653, residues 1-427, S386D/S396D/S398D/S402D/T404D/S405D)
Method: protein-binding microarray
Molecule type: double-stranded DNA, one strand shown
Medium: in vitro
Tested at: 2540 nM top
Notes: 60-bp whole probe
Together with: salmon DNA 0.4 mg/ml
Baseline: random background probes
Reading: higher = stronger binding
Constant ends, left off below: GCCTAGCAC … GTCTTGATTCGCTTGACGCTGCTG
Construct (chain): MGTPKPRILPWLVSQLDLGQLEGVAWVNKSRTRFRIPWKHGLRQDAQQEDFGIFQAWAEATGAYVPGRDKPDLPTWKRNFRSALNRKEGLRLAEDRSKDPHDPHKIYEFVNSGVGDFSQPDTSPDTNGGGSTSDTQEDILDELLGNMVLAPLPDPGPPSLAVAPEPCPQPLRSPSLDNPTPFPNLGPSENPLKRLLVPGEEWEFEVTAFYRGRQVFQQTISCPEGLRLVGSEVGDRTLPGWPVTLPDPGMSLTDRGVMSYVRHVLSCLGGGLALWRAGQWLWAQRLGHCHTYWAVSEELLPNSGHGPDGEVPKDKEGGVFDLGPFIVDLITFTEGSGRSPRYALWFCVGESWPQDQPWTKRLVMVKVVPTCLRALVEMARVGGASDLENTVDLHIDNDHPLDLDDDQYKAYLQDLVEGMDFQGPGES
For `GATGGTATCGGTTTCGGGACGTGCTAG`, “fitted relative affinity” read 6.99 z-score.
`CACGTTGCTCAAGGGCTTGAGTGCTAG` — result for “fitted relative affinity”: -0.209 z-score.
For `TTAGGTTTCGGACTGGTTTAGTGCTAG`, “fitted relative affinity” read 4.45 z-score.
For `TCATGTTTGGTCCTGAAACTGTGCTAG`, “fitted relative affinity” read 0.189 z-score.
`TCATCTTTCGTTACTTCACTGTGCTAG`: “fitted relative affinity” 2.05 z-score.
`GACGAACTGAGGATCGAGACGTGCTAG` — result for “fitted relative affinity”: -0.269 z-score.
Under “fitted relative affinity”, `GACGGTATCGGTTTCGCGACGTGCTAG` is recorded as 6.2 z-score.
`TCCCCTCTAGGTTCTCTGAAAGTGCTA`: “fitted relative affinity” 0.252 z-score.
`TTAGATATCAGTCTCGCTTAGTGCTAG` — result for “fitted relative affinity”: 1.2 z-score.
`TTTTCATTATTGTCTCCCCCAGTGCTA`: “fitted relative affinity” 2.64 z-score.
`TCAACTCTGAACCTTGGACTGTGCTAG`: “fitted relative affinity” -0.199 z-score.
For `TTGGATCTCAGTTTCGATTAGTGCTAG`, “fitted relative affinity” read 3.26 z-score.
Under “fitted relative affinity”, `TTAGAACTGGGTCTCGGTTAGTGCTAG` is recorded as -0.577 z-score.
For `GGGCATTTGGAAAATGTAAACGTGCTA`, “fitted relative affinity” read -0.0708 z-score.
`GACGGTTTCGACCATCGGGACGTGCTA`: “fitted relative affinity” 1.92 z-score.
Under “fitted relative affinity”, `AGAGCTAAGTGAGTGTCATCGTGCTAG` is recorded as -0.803 z-score.
`TCAAACTTCTCCACTGAAACTGTGCTA`: “fitted relative affinity” 0.0336 z-score.
Under “fitted relative affinity”, `TTAGGTCTCGGTTTCTGTTAGTGCTAG` is recorded as 3.37 z-score.
For `GACGGTTTCGGACTGGCGACGTGCTAG`, “fitted relative affinity” read 4.72 z-score.

Study 3
Target: Sal-like protein 4, full length isoform B (SALL4, Homo sapiens, UniProt Q9UJQ4-2, residues 1-616)
Method: universal PBM
Molecule type: double-stranded DNA, one strand shown
Medium: in vitro
Tested at: not given
Notes: 8-mer, flanks averaged, mean of replicates
Reading: higher = stronger binding
Construct (chain): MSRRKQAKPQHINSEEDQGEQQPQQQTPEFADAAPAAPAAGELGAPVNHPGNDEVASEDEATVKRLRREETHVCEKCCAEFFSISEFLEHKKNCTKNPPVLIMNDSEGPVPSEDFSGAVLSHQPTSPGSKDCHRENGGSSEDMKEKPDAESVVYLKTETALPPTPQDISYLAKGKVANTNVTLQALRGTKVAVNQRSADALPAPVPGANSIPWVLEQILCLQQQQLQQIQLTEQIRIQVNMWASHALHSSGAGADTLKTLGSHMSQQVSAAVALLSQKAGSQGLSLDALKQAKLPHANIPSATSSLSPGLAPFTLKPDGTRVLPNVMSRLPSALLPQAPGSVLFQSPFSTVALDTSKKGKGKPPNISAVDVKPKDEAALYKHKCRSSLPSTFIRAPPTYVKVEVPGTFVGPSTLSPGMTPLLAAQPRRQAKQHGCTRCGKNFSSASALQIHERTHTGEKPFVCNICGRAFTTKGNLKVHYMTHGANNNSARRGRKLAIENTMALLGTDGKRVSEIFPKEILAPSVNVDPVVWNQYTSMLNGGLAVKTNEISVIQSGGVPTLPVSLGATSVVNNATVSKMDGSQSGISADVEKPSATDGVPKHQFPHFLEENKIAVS
`ACTACAGA` gave an E-score of 0.208.
For `ATGCTTTG`, the E-score was 0.103.
`GCGTGGAA` has an E-score of -0.0819.
`GCTTGTAA` has an E-score of 0.0944.
For `GTGGGTTA`, the E-score was 0.0811.
With `AAGGCTTA` the E-score was 0.0799.
The E-score of `GACATGCA` is reported as 0.0715.
For `AGGGCATA`, the E-score was 0.144.
The E-score of `ATTGACAG` is reported as 0.125.
With `AAAAGGTC` the E-score was -0.00774.
The E-score of `TCTAACCA` is reported as 0.0804.
`CAACGCCG` gave an E-score of -0.249.
The E-score of `AATATTGC` is reported as 0.425.
For `AGGGGCCG`, the E-score was -0.325.
`AGCTGCTC` gave an E-score of -0.178.
The E-score of `AAACGATG` is reported as 0.121.
For `ACTCCACT`, the E-score was -0.0047.
`CGTAGGGC` has an E-score of -0.125.
`CAGCGAAG` gave an E-score of -0.176.
`GAATCAGC` gave an E-score of -0.243.
With `ATCGATAC` the E-score was 0.128.
For `TAGTCAAA`, the E-score was 0.259.
`CAAATTAA` has an E-score of 0.24.
With `CCGTAGCG` the E-score was -0.238.
The E-score of `CAGCAGGG` is reported as -0.236.

Study 4
Target: Histone acetyltransferase KAT6A, winged helix 2, GST fusion (KAT6A, Homo sapiens, UniProt Q92794, residues 85-181)
Method: protein binding microarray
Molecule type: double-stranded DNA, one strand shown
Medium: in vitro
Tested at: not given
Notes: 8-mer, flanks averaged, mean of 2 arrays, mostly near background
Baseline: not given
Reading: higher = stronger binding
Target sequence (chain): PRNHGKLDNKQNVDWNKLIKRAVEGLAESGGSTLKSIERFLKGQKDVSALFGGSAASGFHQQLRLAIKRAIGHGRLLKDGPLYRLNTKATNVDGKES
`CGTGTCAG` has an E-score of 0.0514.
For `AACATAAA`, the E-score was -0.0221.
The E-score of `CTTCTGTC` is reported as 0.00637.
The E-score of `AGTTATGG` is reported as -0.0641.
`GAGCTTAC` has an E-score of 0.0252.
The E-score of `GTCACCTA` is reported as -0.139.
`GACCGCAA` gave an E-score of 0.163.
`ACCAGTTC` has an E-score of -0.0112.
The E-score of `CCTCCGCG` is reported as 0.114.
For `CTCTCAAA`, the E-score was 0.107.
With `GCTGCAAA` the E-score was 0.155.
`ACGACGCG` has an E-score of -0.0091.
`CTAGAGAA` has an E-score of -0.0726.
`CTCGTATA` has an E-score of -0.205.
`GCTAAACA` gave an E-score of 0.133.
With `GAAGTAGA` the E-score was 0.015.
`CTAGCCTC` has an E-score of -0.178.
With `ATCACTAG` the E-score was -0.201.

Repeated from above (study 4):
The E-score of `CCTCCGCG` is reported as 0.114.
For `CTCTCAAA`, the E-score was 0.107.
With `GCTGCAAA` the E-score was 0.155.
`ACGACGCG` has an E-score of -0.0091.
`CTAGAGAA` has an E-score of -0.0726.
`CTCGTATA` has an E-score of -0.205.
`GCTAAACA` gave an E-score of 0.133.
With `GAAGTAGA` the E-score was 0.015.
`CTAGCCTC` has an E-score of -0.178.
